Measured values from different studies.
Lines come from different studies, so protocols differ. Values joined by “and” are separate records of one study, mostly repeats; a detail may differ. ± marks the error that the study gave.

C[C@@H]1CN(c2cc(=O)n(C)c3ccc(C#N)nc23)[C@@H](C)CN1Cc1ccc(S(=O)(=O)n2cnc(C3CC3)n2)cc1 — PA biosensor translocation (HEK293A expressing PILS-Nir1; plasma membrane translocation, PILS-Nir1 biosensor; 300 nM, 5 min pretreatment, together with: carbachol): inhibited
O=C(N[C@@H](Cc1ccc(OCCCCC2CCNCC2)cc1)C(=O)O)c1nc2ccccc2o1.O=C(O)C(F)(F)F — ADP-induced aggregation (platelets; impedance aggregometry; human, diluted whole blood; 75 nM, together with: ADP; relative to: untreated): 0.589 and 0.574 and 0.633 and 0.782 and 0.881
CSCC[C@H](NC(=O)[C@H](CCC(N)=O)NC(=O)[C@H](CCCCN)NC(=O)[C@H](CCCNC(=N)N)NC(=O)[C@H](Cc1ccc(O)cc1)NC(=O)[C@H](CCCNC(=N)N)NC(=O)[C@H](CO)NC(=O)[C@H](Cc1ccc(O)cc1)NC(=O)[C@H](CO)NC(=O)[C@H](CC(=O)O)NC(=O)[C@@H](NC(=O)[C@@H](N)Cc1ccccc1)[C@@H](C)O)C(=O)N[C@@H](C)C(=O)N[C@H](C(=O)N[C@@H](CCCCN)C(=O)N[C@@H](CCCCN)C(=O)N[C@@H](Cc1ccc(O)cc1)C(=O)N[C@@H](CC(C)C)C(=O)N[C@@H](C)C(=O)N[C@@H](C)C(=O)N[C@H](C(=O)N[C@@H](CC(C)C)C(=O)NCC(=O)N[C@@H](CCCCN)C(=O)N[C@@H](CCCNC(=N)N)C(=O)N[C@@H](Cc1ccc(O)cc1)C(=O)N[C@@H](CCCCN)C(=O)N[C@@H](CCC(N)=O)C(=O)N[C@@H](CCCCn1cc(C[C@H](NC(=O)CNC(=O)[C@H](CO)NC(=O)[C@H](CCCNC(=N)N)NC(=O)[C@H](CO)NC(=O)[C@H](CC(C)C)NC(=O)[C@H](CC(C)C)NC(=O)CNC(=O)[C@H](C)NC(=O)[C@H](CC(C)C)NC(=O)[C@H](CCCNC(=N)N)NC(=O)[C@H](Cc2c[nH]cn2)NC(=O)[C@@H](NC(=O)[C@@H](N)C(C)C)[C@@H](C)O)C(=O)N[C@H](C(=O)N[C@H](C(=O)N[C@@H](CCCCN)C(=O)N[C@@H](CC(N)=O)C(=O)N[C@@H](CC(N)=O)C(=O)N[C@@H](Cc2ccccc2)C(=O)N[C@H](C(=O)N2CCC[C@H]2C(=O)N[C@H](C(=O)N[C@@H](CC(N)=O)C(=O)N[C@H](C(=O)NCC(=O)N[C@@H](CO)C(=O)N[C@@H](CCCCN)C(=O)N[C@@H](C)C(=O)N[C@@H](Cc2ccccc2)C(N)=O)C(C)C)[C@@H](C)O)C(C)C)C(C)C)C(C)C)nn1)C(=O)N[C@H](C(=O)N[C@@H](CCCCN)C(=O)N[C@@H](CC(N)=O)C(=O)N[C@@H](CCCCN)C(N)=O)C(C)C)C(C)C)C(C)C — A2 (transfected COS-7 cells; cAMP accumulation, antagonist; together with: PACAP-38): > 10 µM
O=C(Nc1nnc2c1c(-c1ccc(Cl)cc1)nc1sc(=Cc3ccco3)c(=O)n12)c1ccccc1 (mixture of isomers) — growth percent (MDA-MB-231/ATCC; NCI60 SRB; 10 µM): 53.8%
CCN(C(=O)c1cc(F)ccc1Oc1nncnc1N1CCC2(C1)CN([C@H](CCCN(C)CCOC)C(C)C)C2)C(C)C — GI50 (Hs 729; cell growth; 168 h): > 10 µM
CCC(=CCc1c(O)cc2c(c1O)C(=O)CC(c1ccc(O)cc1)O2)CC (stereo not drawn) — inhibition (HeLa; cell growth or viability, MTT; 25 µM, 48 h): 73.4%
COC(=O)c1cc(NC2=NC(=O)C(=Cc3ccc(C)cc3)S2)ccc1OC(C)=O — metabolite level (MCF7; GC-MS, refers to: Glyceric acid; 1 µM; relative to: DMSO): -0.05 fold change
Cc1cccc(-c2cccc(C)n2)n1.Cc1cccc(-c2cccc(C)n2)n1.F[P-](F)(F)(F)(F)F.F[P-](F)(F)(F)(F)F.[Ru+2].c1ccc2c(c1)Cc1cc(-c3nc4c5cccnc5c5ncccc5c4[nH]3)ccc1-2 — phototoxicity index (SK-MEL-28; normoxia, together with: green light 523 nm, 100 J/cm2; relative to: dark over light EC50): 1
COc1ccc2c(c1)c(CC(=O)[Se]CC(=O)Nc1cccc(C(F)(F)F)c1)c(C)n2C(=O)c1ccc(Cl)cc1 — TGI (NCI60 breast subpanel mean; cell growth): 4.25 µM
Cc1cc(NC2CCN(C)CC2)ccc1-c1cc2c(N3CCC[C@H](C(=O)NCc4ccc(OC(F)(F)F)cc4)C3)ncnc2[nH]1 — inhibition (NCI-H3122; cell growth or viability, MTT; 0.00032 µg/mL, 72 h): 14.1%
CCN(CC)CC(=O)Nc1cccc(-n2cc(-c3ccc4ccc(-c5cn(-c6cccc(NC(=O)CN(CC)CC)c6)nn5)cc4c3)nn2)c1 — fold regulation (RCC4; PCR angiogenesis array, refers to: VEGFA; 5 x IC50, 4 h, normoxia; relative to: untreated): -1.17 fold
N#Cc1cccc(/C=C/C(=O)c2ccc(O)cc2)c1 — fold change (U-87 MG; refers to: ARHGAP22; concentration not given; relative to: untreated): 0.027
Cc1cccc(-c2cccc(C)n2)n1.Cc1cccc(-c2cccc(C)n2)n1.F[P-](F)(F)(F)(F)F.F[P-](F)(F)(F)(F)F.[Ru+2].c1ccc(-c2nc3c4cccnc4c4ncccc4c3[nH]2)cc1 — EC50 (SK-MEL-28; cell viability; 1% O2, together with: green light 523 nm, 100 J/cm2): 132 ± 10 µM
Cn1ncc2cc(-c3cncc(Cl)c3N3CCC4(CCNC4=O)CC3)ccc21 — log2 fold change (LS174T; gene expression, microarray, refers to: SLC6A4 mRNA; concentration not given, 24 h; relative to: untreated cells): 2.15
O=C(N1CCCC1)n1cc(-c2ccc(-c3ccccc3)cc2)nn1 — SILAC ratio (mouse T cells; N-terminal labelling proteomics, refers to: FBXO7 N-terminal peptides; 0.001 µM, 6 h; relative to: DMSO): 0.88
C[C@H](NC(=O)CN)C(=O)NCC(=O)N[C@@H](C)C(=O)N[C@@H](C)C(=O)NCC(=O)NCC(=O)N[C@@H](C)C(=O)NCC(=O)NCC(=O)NCC(=O)NCC(=O)NCC(=O)NCC(=O)NCC(=O)N[C@@H](CCCCNC(=O)CCCC[C@@H]1SC[C@@H]2NC(=O)N[C@@H]21)C(N)=O — binding rate (HEK293T-OFP cells; flow cytometry; concentration not given, together with: biotin-labelled peptide): 0.25% and 0.4% and 0.31%
CCCCCCc1cccc(C(O)CC(CO)NC(=O)CCCCCCCCCCNC(C)=O)c1 (stereo not drawn) — sphingomyelin level (HeLa; CERT activity, HPLC-MS/MS lipidomics, refers to: sphingomyelin 22; 1 µM, 24 h, not cell-number normalised): 33700 pmol/sample and 23500 pmol/sample and 29100 pmol/sample
CNS(=O)(=O)Nc1nccc(Cc2c(C)c3ccc(Oc4ncccc4F)cc3oc2=O)c1F — IC50 (A-431; cell viability; 7 days): 0.408 µM
CN1CCCNC(=O)c2cccc(c2)C(=O)NCCCN(C)CCCNc2cccc3c2C(=O)c2cccc(c2C3=O)NCCC1 — log2 fold change (SAS; RNA-Seq, refers to: CHD1 mRNA; 1 µM, 6 h; relative to: untreated cells): -0.925
O=C(C[Se]C(=O)c1cc2ccccc2s1)Nc1cccc(C(F)(F)F)c1 — mean growth percent (NCI60 prostate subpanel (PC-3, DU-145); cell growth; 10 µM, 48 h, one-dose): -81.7%
O=C1C(Br)=C(Br)C(=O)c2ccccc21 — selectivity index (HuCC-A1; MTT; relative to: IC50 MRC-5 over IC50 HuCC-A1): 1.96
CC(C)c1ccc(N(C)c2ccc3c(c2)OCC[C@H]3CNc2cnccc2C(=O)O)cc1 — IC50 (SW579; cell viability, CellTiter-Glo; 7 days): ≥ 10 µM
Cc1cc(Cl)cc(-c2ccnc3cc(CN4C(=O)C5C(C4=O)C5(C)C)sc23)c1C[C@@H]1CNCCO1 (stereo partly drawn) — apoptotic cells (CHP-212 resistant subline R3; annexin V/PI flow cytometry; 1 µM, 48 h): 15.6% and 16.3% and 17.4%
[Cl-].[Cl-].[Ru+2].c1ccc(-c2ccccn2)nc1.c1ccc(-c2ccccn2)nc1.c1ccc2cc3nc4c5cccnc5c5ncccc5c4nc3cc2c1 — EC50 (SK-MEL-28; photocytotoxicity; light 633 nm, oxygen 18.5%): 0.612 ± 0.014 µM
O=C(C[Se]C(=O)c1cccnc1Nc1cccc(C(F)(F)F)c1)Nc1cccc(C(F)(F)F)c1 — mean TGI (NCI60 prostate subpanel (PC-3, DU-145); total growth inhibition, inhibitor; five-dose): 3.58 µM
COc1ccc(NC(=O)c2ccc3[nH]c(-c4ccc(N(C)C)cc4)nc3c2)cn1 — dead cell to confluence ratio (HCT116; IncuCyte; concentration not given, 14 h): 40.2 and 198 and 117
CC(=O)Oc1ccccc1C(=O)[Se]CC(=O)Nc1cccc(C(F)(F)F)c1 — mean growth percent (NCI60 prostate subpanel (PC-3, DU-145); cell growth; 10 µM, 48 h, one-dose): 16.9%
C=CC(=O)N1[C@@H](c2ccc3c(c2)OCO3)c2[nH]c3ccccc3c2C[C@H]1C(=O)NC1CC1 — neuron degeneration (rat DRG neurons; 0.01372 µM, 48 h, together with: vincristine 40 nM): 83.2% and 82.6%
O=C(C[Se]C(=O)c1cc2ccccc2o1)Nc1cccc(C(F)(F)F)c1 — mean TGI (NCI60 prostate subpanel (PC-3, DU-145); total growth inhibition, inhibitor; five-dose): 3.18 µM
Cc1ncsc1-c1ccc(C(C)NC(=O)C2CC(O)CN2C(=O)C(NC(=O)CCCCCCCCCCN2CCCC(Nc3ncc(Cl)c(Nc4ccccc4S(=O)(=O)C(C)C)n3)C2)C(C)(C)C)cc1 (stereo not drawn) — log2 fold change (22Rv1; RNA-seq, refers to: RPP25 mRNA; concentration not given; relative to: DMSO): -2.12
